Assay results pooled from the literature.
Protocols differ between the studies behind these lines.
Target: Serine/threonine-protein kinase STK11 (STK11, Homo sapiens, UniProt Q15831)
One construct used (Q15831 1-433): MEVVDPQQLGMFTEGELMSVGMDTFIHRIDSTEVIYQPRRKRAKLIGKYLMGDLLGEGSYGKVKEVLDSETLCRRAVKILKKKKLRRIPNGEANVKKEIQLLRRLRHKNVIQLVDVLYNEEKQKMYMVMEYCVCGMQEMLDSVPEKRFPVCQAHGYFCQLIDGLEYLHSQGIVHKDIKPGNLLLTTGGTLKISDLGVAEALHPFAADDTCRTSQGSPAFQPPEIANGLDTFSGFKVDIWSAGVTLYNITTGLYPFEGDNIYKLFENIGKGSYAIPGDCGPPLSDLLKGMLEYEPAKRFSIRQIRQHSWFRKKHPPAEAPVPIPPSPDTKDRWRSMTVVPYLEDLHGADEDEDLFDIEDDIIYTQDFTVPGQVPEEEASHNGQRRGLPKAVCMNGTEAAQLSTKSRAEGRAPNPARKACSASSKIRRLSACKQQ

The remaining binding of `C=C1CCCCCCCCCC(CO)C1=O` (stereo not shown) is reported as 100% (cell-free assay, competition with immobilised ligand; 10 µM).
`COc1ccc(NC(=O)Nc2ccc3c(c2)C(=O)N(C(C)CO)CC(C)C(CN(C)Cc2ccc4c(c2)OCO4)O3)cc1` (stereo not shown) has a remaining binding of 39% (binding, competition with immobilised ligand; 10 µM).
The remaining activity of `c1ccc2c(Nc3cc(C4CCC4)[nH]n3)nc(Nc3ccc4nc[nH]c4c3)nc2c1` is reported as 24% (enzyme activity, inhibitor; 0.25 µM).
With `Nc1ncc(-c2cc(-c3cnn(CC(F)(F)F)c3)ncc2F)nc1C(=O)NC1CNCC(F)C1` (stereo not shown) the remaining activity was 95.2% (enzyme activity; 1 µM; reference: DMSO control).
The inhibition of `NC(=O)[C@@H](O)C[C@H]1CCc2sc3ncnc(O[C@H]4CC[C@H](N5CCOCC5)CC4)c3c21` is reported as 33% (enzyme activity, inhibitor; 10 µM).
`Nc1ncc2c(n1)-c1c([nH]c3ccc(C4=CCOCC4)cc13)CCC2` gave a remaining binding of 46% (binding, competition with immobilised ligand; 1 µM).
`CN1CCN(Cc2ccc(NC(=O)c3cccc(C#Cc4cnc(N)c5ncccc45)c3)cc2C(F)(F)F)CC1` has a remaining binding of 69% (cell-free assay, competition with immobilised ligand; 50 nM).
For `Cc1cnc2nc1Nc1cccc(c1)COC/C=C/COCc1cc(ccc1OCCN1CCOCC1)N2`, the remaining binding was 57% (binding, competition with immobilised ligand; 0.1 µM).
`CC(=O)N1c2ccc(-c3ccc(CNC(=O)c4cn5cc(-c6cnc(N)nc6)nc(N6CCOCC6)c5n4)cc3)cc2CC[C@@H]1C` has a remaining binding of 100% (KINOMEscan; 10 µM).
For `CCN1CCN(Cc2ccc(C(=O)Nc3ccc(C)c(NCc4cnc5[nH]ccc5c4OC)c3)cc2C(F)(F)F)CC1`, the remaining binding was 83% (binding, competition with immobilised ligand; 1 µM).
With `CNC(=O)C1CCN(c2cc(C)c(F)cc2NC(=O)c2ccc(-c3cc(O)ccc3C)c(C)c2)CC1` the remaining binding was 81% (binding, competition with immobilised ligand; 1 µM).
For `COc1cc(Nc2nc(C)cc(-c3cnn4nc(OC)ccc34)n2)cc(C(F)(F)F)c1`, the remaining activity was 100% (inhibitor; 1 µM, LKB1; reference: control).
With `CCn1cc(C(=O)O)c(=O)c2c(N)c(F)c(NC3CCCCC3)cc21` the inhibition was 11% (kinase activity; 0.1 µM, with: ATP at Km).
The remaining binding of `C=CC(=O)N1CCc2ccc(-n3c(=O)ccc4cnc5ccc(-c6cnn(C)c6)cc5c43)cc21` is reported as 100% (KINOMEscan; 1 µM; reference: DMSO control).
`Cc1nc2c(F)cc(-c3nc(Nc4ccc(CNC(=O)CCCCCCC(=O)NO)cc4)ncc3F)cc2n1C(C)C` gave an inhibition of 34% (enzyme activity, inhibitor; 1 µM).
`O=C=[N][Ru-4]123([n]4c5ccc(O)cc5c5c6c(c7cc(F)c[n+]1c7c54)C(=O)NC6=O)[S+]1CC[S+]2CC[S+]3CC1` (stereo not shown) gave a remaining activity of 106% (enzyme activity; 100 nM, human enzyme, with: 10 µM ATP; reference: untreated).
